Assay results gathered from unrelated publications.
A part holds a random share of what one study measured.

Series 1
Target: RNA binding protein fox-1 homolog 2, RRM domain, GST-SBP tag (RBFOX2, Homo sapiens, UniProt O43251-10, residues 100-194)
Method: RNA Bind-n-Seq
Molecule type: RNA
Matrix: in vitro
Tested at: 365 nM
Notes: natural RNA segment, single round, ends assumed
Reference: no-protein control
Direction: higher = stronger binding
Residues (chain): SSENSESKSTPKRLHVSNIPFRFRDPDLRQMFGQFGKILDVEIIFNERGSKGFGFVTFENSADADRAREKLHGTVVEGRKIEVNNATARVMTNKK
| Oligonucleotide | RBNS enrichment (R) |
| --- | --- |
| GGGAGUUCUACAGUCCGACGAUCAUUUGAACUUUUCAAGAAGUAGGUCCUAGUACUUGGGAUCUUGUUAGAUCUGUGCUCUGGAGGUGGUCUGCGUGAUUAGUGUUAGUGUAUGGUUUGGUGGUCUUUAAUGUUGGAAUUCUCGGGUGCCAA | 1.73 |
| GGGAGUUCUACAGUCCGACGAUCCAGGCAGCAGCCGCCCAUCUCGCCCCAACUGUUGGCUCCAGGCAGGGCUGGGCAGCAGGGAGCCUGGGACUGAACAAUAAACCCAUGAUCUCCUGCCUCACACACCUGUUUGGAAUUCUCGGGUGCCAA | 0.393 |
| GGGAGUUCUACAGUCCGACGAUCGUUAUUCCUUCUUUCCAACCAGCUUUGCUCGAGUUAGAAUUUUGUUAUUUUCAAAUAAAAAAUAGUUUGGCCACUUAACAAAUUUGAUUUAUAAAUCUUUCAAAUUAGUUUGGAAUUCUCGGGUGCCAA | 1.11 |
| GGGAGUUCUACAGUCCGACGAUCGUGUCUAUUAUCACAUUAAUCUCAAAGAGAUUCGAAUGACGGUAAGUGUUCUCAUGAAGCAGGAGGCCCUUGUCGUGGGAUGGCAUUUGGUCUCAGGCAGCACCACACUGUGGAAUUCUCGGGUGCCAA | 0.564 |
| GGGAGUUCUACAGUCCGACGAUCAGUGAAAAGUUUGUAUUCUGCCUCUAAAGUUCCUCAACAAAUACUCGAGUUACACAUAUGCAUAUGUCACACUGUCACUCAGUGUGUGGAUAUGCCUAUGUCACACUGUCUGGAAUUCUCGGGUGCCAA | 0.221 |
| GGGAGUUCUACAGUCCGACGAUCAGAAUGGCUCCAGCUGUGGGUGUGCACAAUGAGGGAGGAACUGCUUUCCCCCUUACUGUCAUUGGUCAGUGGAGCAGAUUCUCAUGGCUGUAGGUAGUUGCUACACAGGAUGGAAUUCUCGGGUGCCAA | 1.28 |
| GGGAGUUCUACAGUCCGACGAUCCCUUUAGAGGGUGUGCUUUGGACGCUGACCUCUUAGGGCUUUAGGACAGAGGGACGAUGUUGAGUCUAGAAGGGCACAAUAUGCCAGAGUUUUAUGGCCAGUGAUCCUCAUGGAAUUCUCGGGUGCCAA | 0.312 |
| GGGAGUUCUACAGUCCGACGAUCGAAGCAUGGGAUGAAAUAGAGGGAAGAAGAGUUUUUAUUUUCUGGCCUUUAAAAAGUGCCUAGUAGGUCAUUUGAGACCCAGAGAAAUGCACAGAGCUUGAGCAAAGGCAUGGAAUUCUCGGGUGCCAA | 3.3 |

Series 2
Target: UBE2D1 UBC core domain (UniProt P51668)
Method: yeast two-hybrid
Matrix: yeast
Notes: mostly zero background
Reference: not given
Direction: higher = stronger interaction
B1: RNF112 RING domain (UniProt Q9ULX5); chain QPMAPRELPTCSICLERLRDPISLDCGHDFCIRCFSTHRLPGCEPPCCPECRKICKQKRGLR
B2: PEX2 RING domain (UniProt P28328); chain DNTLATSGKECALCGEWPTMPHTIGCEHIFCYFCAKSSFLFDVYFTCPKCGTEVHSLQPLK
B3: RFPL2 RING domain (UniProt O75678); chain MAALFQEASSCPVCSDYLEKPMSLECGCAVCLKCINSLQKEPHGEDLLCCCSSMVSRKNKIRR
B4: TRIM35 RING domain (UniProt Q9UPQ4); chain PSRSFKEELLCAVCYDPFRDAVTLRCGHNFCRGCVSRCWEVQVSPTCPVCKDRASPADLRT
Target sequence (chain): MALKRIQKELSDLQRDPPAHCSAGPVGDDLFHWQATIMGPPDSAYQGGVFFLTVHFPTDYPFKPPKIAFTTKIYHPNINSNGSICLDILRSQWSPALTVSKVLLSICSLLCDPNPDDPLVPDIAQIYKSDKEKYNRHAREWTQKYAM
| Sequence | lacZ reporter activity |
| --- | --- |
| ISNDSETLEECMVCSDMKRDTLFGPCGHIATCSLCSPRVKKCLICKEQVQSRTKIE (MIB1 RING domain (UniProt Q86YT6)) | 0 |
| KIKDLNEHIVCCLCAGYFVDATTITECLHTFCKSCIVKYLQTSKYCPMCNIKIHETQPLL (PCGF1 RING domain (UniProt Q9BSM1)) | 0 |
| B1 (RNF112 RING domain) | 0 |
| B2 (PEX2 RING domain) | 0 |
| B3 (RFPL2 RING domain) | 0 |
| KRQCSDVDDICSICQAEFQKPILLICQHIFCEECMTLWFNREKTCPLCRTVISDHINKW (RNFT1 RING domain (UniProt Q5M7Z0)) | 0 |
| B4 (TRIM35 RING domain) | 0 |

Series 3
Target: Cyclic AMP-responsive element-binding protein 1 (CREB1, Homo sapiens, UniProt P16220, residues 1-327, full length assumed)
Chain of UniProt P16220 (whole entry, looked up): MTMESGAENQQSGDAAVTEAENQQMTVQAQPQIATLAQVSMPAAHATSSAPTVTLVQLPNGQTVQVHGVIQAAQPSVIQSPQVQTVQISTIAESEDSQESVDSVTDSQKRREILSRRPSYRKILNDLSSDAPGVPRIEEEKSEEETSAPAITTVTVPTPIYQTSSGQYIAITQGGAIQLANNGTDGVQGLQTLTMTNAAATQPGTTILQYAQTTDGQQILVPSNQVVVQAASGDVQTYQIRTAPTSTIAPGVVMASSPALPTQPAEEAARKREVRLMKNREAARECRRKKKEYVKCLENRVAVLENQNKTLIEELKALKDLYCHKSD
Method: protein-binding microarray
Molecule type: double-stranded DNA, one strand shown
Matrix: in vitro
Tested at: not given
Notes: k-mer, scored over probes, only values ≥0.25
Direction: higher = stronger binding
| Oligonucleotide | E-score |
| --- | --- |
| ATGATGC | 0.266 |
| ACGTAAC | 0.431 |
| ACATGAC | 0.317 |
| ACGTTAT | 0.386 |
| ATGACGG | 0.296 |
| TATGTGA | 0.267 |
| AGATGAC | 0.284 |
| CGTCATA | 0.489 |
| ACGTTTG | 0.264 |
| ATTTACG | 0.305 |
| AAGTGAC | 0.257 |

Series 4
Target: Fragile X messenger ribonucleoprotein 1, C-terminal low-complexity region (Fmr1, Mus musculus, UniProt P35922)
Method: RNA Bind-n-Seq
Molecule type: RNA
Matrix: in vitro
Tested at: 200 nM
Notes: whole 134-nt RNA, ends assumed
Added: 150 mM KCl
Reference: input library
Direction: higher = stronger binding
| Oligonucleotide | log2 enrichment |
| --- | --- |
| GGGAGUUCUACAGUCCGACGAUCCAAGUCCUGUGCUACACAUCGUAUGUACCGAAUCGGGAGGGUUUUUUUGGGAGGGAAAGUAUUAUGUUACGCCGUUCGGAUCUGCACUUCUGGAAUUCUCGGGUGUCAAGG | 0.797 |
| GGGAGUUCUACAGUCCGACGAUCCCUGUGCUACACAUCGUAUGUACCGAAUCGGGGAAAAAAAGGGGUUUUUUUGGGGAGGGGAAAGUAUUAUGUUACGCCGUUCGGAUCUGCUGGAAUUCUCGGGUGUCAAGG | 0.47 |
| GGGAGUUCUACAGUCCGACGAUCUCCUCAAGUCCUGUGCUACACAUCGUAUGUACCGAAUCGGUGGUGGGGUGGGAAAGUAUUAUGUUACGCCGUUCGGAUCUGCACUUCCAGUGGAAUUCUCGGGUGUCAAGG | 0.438 |
| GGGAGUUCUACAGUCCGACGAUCAAGUCCUGUGCUACACAUCGUAUGUACCGAAUCGGGAAAGGGAAAAAGGGUUUGGGAAAGUAUUAUGUUACGCCGUUCGGAUCUGCACUUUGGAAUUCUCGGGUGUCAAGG | 0.19 |
| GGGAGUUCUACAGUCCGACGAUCUCCUCAAGUCCUGUGCUACACAUCGUAUGUACCGAAUCGGGGCGGCGGCGGAAAGUAUUAUGUUACGCCGUUCGGAUCUGCACUUCCAGCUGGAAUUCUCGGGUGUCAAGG | -0.121 |

A few entries again (series 3):
| Oligonucleotide | E-score |
| --- | --- |
| AGATGAC | 0.284 |
| CGTCATA | 0.489 |
| ACGTTTG | 0.264 |
| ATTTACG | 0.305 |
| AAGTGAC | 0.257 |
